Assay results pooled from the literature.
Every numbered part comes from another study and shows a few of its results, in no order. Substitutions count along the parent as printed.

Series 1
Target: RNA binding protein fox-1 homolog 2, RRM domain, GST-SBP tag (RBFOX2, Homo sapiens, UniProt O43251-10, residues 100-194)
Technique: RNA Bind-n-Seq
Form: RNA
Sample: in vitro
Concentration: 365 nM
Notes: natural RNA segment, single round, ends assumed
Relative to: no-protein control
Reading: higher = stronger binding
All sequences stand within: GGGAGUUCUACAGUCCGACGAUC … UGGAAUUCUCGGGUGCCAA
Residues (chain): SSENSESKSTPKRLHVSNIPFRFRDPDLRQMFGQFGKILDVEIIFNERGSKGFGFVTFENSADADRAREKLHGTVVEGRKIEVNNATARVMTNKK
Sequence | RBNS enrichment (R)
GAAUAUUGCAAAAGGGAGAGGAAGGGGCCUUAUGGGAAUAGUGAAAAGGCUCAGACCGACCGAUGGCAAGAUCUGCAAGCGUCUCAAAGCCCAGGCAGAAAAGGACUUUU | 0.739
GGAAGGGCAGGAAGGAGAGCCUGCUGCAUGGGGUGGGGUAGGGCUGACUAGAAGGGCCAGUCCUGCCUGGCCAGGCAGAUCUGUGCCCCAUGCCUGUCCAGCCUGGGCAG | 0.715
AGAUUUCUGAGUAAGAUCUGGCAAGUGAGGGAGCUUUUCUUGAGAGGGGAAGGCUACAUUUCUAUGGGUAUAGAAAUGGGAAUAUUUGCGAGCCUAUCUCAGAUGUACAU | 0.412
CCCAUCUCCUCUCCCUUACUGUAGCAUUUCUGUCAUGUAAGAGGUGCUGACAGCCACUUCCGUGUCCCCUUUCUGCUCGAAGGAUGAGGAUACCUUGGGCAUCAGCUCCC | 0.674
UCCUCUUUCUUGUAGCCUUUUGACUCAGUGGAAUCGAAGAUACAAUUUUCCUUAGACUACCUAGUGGAGCAGGGAAUACUCUGCAUCUCAGGUAAAAAAAUGAGUACACU | 0.257
CACACAUAAAAGAGAGAGGGAGUAUGUUUGUGUGUUUCAUGUGCAUACAUAUAUACACACUCCUAACAUUCCCACUCGGGAGGCCAAGGCCAGCACAUCUCUAAAUUUGA | 0.359
UUAUAGGGUCCCUGAAUCACUGAUCUUCAACAGGGCAUUUUAAUAUUAGCAUUAGUGUGCACAGGGUACUUUUGAAAUGGUUUUGGAUAGAUUUACAAUAUGUAAGAUUA | 0.797
CAGUAACCAUACCGAUCAAAUUCCCAGGGACAUUCUGUCAUUGCAGUAGCUCAGACCUGUCUUUUCUUGCACACCAGCUGUGCUCUUGAGAAAAUGUAAAGGCUGCCAUU | 0.309
AAUAUCAGCGCACACACAUAGCUGCAUGUUCUGCUCGUGUAGUUUAAAAAAAAAAAGACAAAACAGUGACAUGAAAUAAAAAAUAAAAAUUGAAAAGGGAUGUAUUUCUA | 2.05
GACUUAGGUCAUGUCACAUUGUUGAAGCCAUUCAUUCUUGAGAUGAUUCUGUACAGGAGUGCUCCUAAUCGCCACUGCACCCUAAUUGCUGAGUCAUGUGCUGAGCUACU | 0.282
AAUCUAAAGGAACAAGUGUGUCGUGUGUCAAGCUGAUGAGGACUGUCAGACUGUGGCUUAGCUCAGUGUGACCCAGACCUUGUGACCUGUAGCUGCCGAACCAGUAGCUC | 0.505
CGGCUUUUGAAGGCCAGUAACCAUUGUUGUGGUUGUGUUUUGUAUUGCUUGAUACCAUGAAAGUGUAAAUACUGUAAUGCCUAAUCUAUUUAUCAAAACUGACUACUGGA | 0.616

Series 2
Target: Ras GTPase-activating protein-binding protein 1, full length (G3BP1, Homo sapiens, UniProt Q13283)
Chain of UniProt Q13283 (whole entry, looked up): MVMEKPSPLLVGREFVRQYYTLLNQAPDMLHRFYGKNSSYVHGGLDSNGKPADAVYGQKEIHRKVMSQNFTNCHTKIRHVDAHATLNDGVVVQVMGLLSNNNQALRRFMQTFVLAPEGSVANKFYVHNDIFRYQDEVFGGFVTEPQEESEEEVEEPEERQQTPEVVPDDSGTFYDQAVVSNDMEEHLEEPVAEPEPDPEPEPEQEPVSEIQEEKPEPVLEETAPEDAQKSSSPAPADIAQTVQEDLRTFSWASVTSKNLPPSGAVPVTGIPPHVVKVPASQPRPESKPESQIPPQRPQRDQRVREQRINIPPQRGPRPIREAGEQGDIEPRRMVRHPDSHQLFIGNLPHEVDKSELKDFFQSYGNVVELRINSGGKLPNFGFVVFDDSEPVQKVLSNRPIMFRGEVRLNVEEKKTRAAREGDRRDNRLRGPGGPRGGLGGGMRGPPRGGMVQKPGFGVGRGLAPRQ
Technique: RNA Bind-n-Seq
Form: RNA
Sample: in vitro
Concentration: 200 nM
Notes: whole 134-nt RNA, ends assumed
Added: 150 mM LiCl
Relative to: input library
Reading: higher = stronger binding
Library: 7-deaza-guanosine replaces G
All sequences stand within: GGGAGUUCUACAGUCCGACGAUC … UGGAAUUCUCGGGUGUCAAGG
Sequence | log2 enrichment
ACCAUGCAGGUGGGCAUCAUUGGGAAGUGGGGCAAGGGGGGGAUAGGGAGGGGGGUAACACUUUGGGAACAGGUGGUCCCAGGUCGUUUC | 0.198
UUUCCCCUGGAGGGCGCCUCCAUCCUUGGAGGCCUAGUGCCGUCGGAGAGAGAGCGGGAGCCGCGGACAGAGACGCGUGCGCAAUUCGGA | -1.53
GUCCUGUGCUACACAUCGUAUGUACCGAAUCGGGGUUUGGGGAAAGGGGUUUUUGGGGAAAGUAUUAUGUUACGCCGUUCGGAUCUGCAC | -0.0687
CCUGUGCUACACAUCGUAUGUACCGAAUCGGGGUUUGGGGUUUUUGGGGUUUUUUUGGGGAAAGUAUUAUGUUACGCCGUUCGGAUCUGC | 0.534
AAGUCCUGUGCUACACAUCGUAUGUACCGAAUCGGGGAAAGGGAAAGGGAAAGGGGAAAGUAUUAUGUUACGCCGUUCGGAUCUGCACUU | 0.489
CACAGACAACACGCACCCACACAGACACAGAGGGAAGGGGUUGUGAUGGGGACAGGGUGCACAGCAGGGCGGGGUAGGACCCCAGCCCCU | -1.46
AAGUCCUGUGCUACACAUCGUAUGUACCGAAUCGGUUUGGUUUUUUUGGAAAAAGGAAAGUAUUAUGUUACGCCGUUCGGAUCUGCACUU | -1.16
AGUCCUGUGCUACACAUCGUAUGUACCGAAUCGGGAAAAAGGGUGGGAAAAAAAGGGAAAGUAUUAUGUUACGCCGUUCGGAUCUGCACU | -0.634
ACCAUGCAGGUGGGCAUCUUUGGGAAGUGGGGCAAGGGGGGGAUAGGGAGGGGGGUAACACUUUGGGAACAGGUGGUCCCAGGAAAUUUC | 0.272
UCAAGUCCUGUGCUACACAUCGUAUGUACCGAAUCGGGGAAGGAAGGGAAGGGGAAAGUAUUAUGUUACGCCGUUCGGAUCUGCACUUCC | -0.0949
UAACUUUAGAGGAGGAUCUGAUGGAUAUGGCAGUGGACGUGGAUUUGGGGAUGGCUAUAAUGGGUAUGGAGGAGGACCUGGAGGUGGCUA | -0.267

Series 3
Target: CCNB2, cyclin fold, Cln2 fusion (human)
Technique: yeast growth competition, sequencing
Sample: yeast
Notes: weak parent motif
Relative to: not given
Reading: higher = stronger binding
Starting sequence: CDC6 docking peptide (human); TLKGRRLVFDNQL
Variant | normalised enrichment score
L2N | -0.0854
R5K | -0.0304
G4L | 0.243
T1Y | 0.21
K3T | 0.25
L2M | 0.141
K3N | 0.265
N11I | -0.251
V8W | 0.106
R5P | -0.691
D10H | 0.0587
V8K | 0.699
K3A | -0.332
R6S | -0.488
T1S | 0.364
R6N | -0.0826
L13E | 0.0778
L2T | -0.157
L13K | -0.0822
G4V | 0.00343
D10E | -0.816
N11F | 0.496
G4K | -0.129
L7W | 0.741
D10K | 0.844

Series 4
Target: Interferon regulatory factor 3, full length, phosphomimetic (IRF3, Homo sapiens, UniProt Q14653, residues 1-427, S386D/S396D/S398D/S402D/T404D/S405D)
Technique: protein-binding microarray
Form: double-stranded DNA, one strand shown
Sample: in vitro
Concentration: 2540 nM top
Notes: 60-bp whole probe
Added: salmon DNA 0.4 mg/ml
Relative to: random background probes
Reading: higher = stronger binding
All sequences stand within: GCCTAGCAC … GTCTTGATTCGCTTGACGCTGCTG
Construct (chain): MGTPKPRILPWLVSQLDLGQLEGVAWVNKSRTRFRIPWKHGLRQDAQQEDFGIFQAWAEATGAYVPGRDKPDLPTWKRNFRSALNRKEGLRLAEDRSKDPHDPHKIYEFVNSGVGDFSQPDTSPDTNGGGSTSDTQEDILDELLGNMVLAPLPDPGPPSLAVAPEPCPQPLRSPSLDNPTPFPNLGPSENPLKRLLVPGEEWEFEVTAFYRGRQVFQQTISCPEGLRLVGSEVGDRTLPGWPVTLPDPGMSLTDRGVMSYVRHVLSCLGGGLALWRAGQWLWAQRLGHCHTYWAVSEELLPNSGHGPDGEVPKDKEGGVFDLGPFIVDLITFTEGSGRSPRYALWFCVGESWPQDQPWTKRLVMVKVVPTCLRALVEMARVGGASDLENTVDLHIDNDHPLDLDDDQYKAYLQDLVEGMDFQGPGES
Sequence | fitted relative affinity
GACGATTTCAGTCGCGAGACGTGCTAG | 0.699 z-score
GACTGTATCGACTATCGGGACGTGCTA | 0.636 z-score
TCACCTTCCTCTTTTACACTGTGCTAG | 2.26 z-score
TCAATTTCCACTTTGACACTGTGCTAG | 3.16 z-score
GACGGTCTCGGTATCGGGCCGTGCTAG | 1.25 z-score
GACGGACTGCTAGTGCTGACGTGCTAG | -0.835 z-score
GACGCTATCCTTATCCTGACGTGCTAG | 2.38 z-score
TTCGATATCGGGTTTCGATTAGTGCTA | 2.11 z-score
GACGATTTCGGGACTGGGGACGTGCTA | 1.81 z-score
TTAGAACTGAGTTTCGATCAGTGCTAG | 1.39 z-score
TTGTATTTGTCCCTATTTAAGTGCTAG | 1.4 z-score
TTAGGTATTCTTATCCTTTAGTGCTAG | 1.01 z-score
TCATCCCTTTCTCTCTGACTGTGCTAG | 3.46 z-score
GACGGTTGCCTTTTCCTGACGTGCTAG | 5.91 z-score
GACGGTTTCGGTTCCGGGAAGTGCTAG | 10.5 z-score
TTTTTTTTTTTTTTTTTGGAGTGCTAG | 1.56 z-score
TTAGGAATGCTTCTCCTTTAGTGCTAG | 0.13 z-score
GACGGTTTCCTTTTCATGACGTGCTAG | 10.8 z-score
TAAGATTTCGGGTTTCGATTAGTGCTA | 3.22 z-score

For quick reference, copied from above (series 2):
Sequence | log2 enrichment
AAGUCCUGUGCUACACAUCGUAUGUACCGAAUCGGGGAAAGGGAAAGGGAAAGGGGAAAGUAUUAUGUUACGCCGUUCGGAUCUGCACUU | 0.489
AAGUCCUGUGCUACACAUCGUAUGUACCGAAUCGGUUUGGUUUUUUUGGAAAAAGGAAAGUAUUAUGUUACGCCGUUCGGAUCUGCACUU | -1.16
CACAGACAACACGCACCCACACAGACACAGAGGGAAGGGGUUGUGAUGGGGACAGGGUGCACAGCAGGGCGGGGUAGGACCCCAGCCCCU | -1.46
UAACUUUAGAGGAGGAUCUGAUGGAUAUGGCAGUGGACGUGGAUUUGGGGAUGGCUAUAAUGGGUAUGGAGGAGGACCUGGAGGUGGCUA | -0.267
UCAAGUCCUGUGCUACACAUCGUAUGUACCGAAUCGGGGAAGGAAGGGAAGGGGAAAGUAUUAUGUUACGCCGUUCGGAUCUGCACUUCC | -0.0949
AGUCCUGUGCUACACAUCGUAUGUACCGAAUCGGGAAAAAGGGUGGGAAAAAAAGGGAAAGUAUUAUGUUACGCCGUUCGGAUCUGCACU | -0.634
